Assay results pooled from the literature.
Protocols differ between the studies behind these lines. “And” joins repeats or separate records; there may be more than shown.
BRAF: Serine/threonine-protein kinase B-raf (BRAF, Homo sapiens, UniProt P15056)
Sequence of UniProt P15056 (whole entry, unmodified, looked up): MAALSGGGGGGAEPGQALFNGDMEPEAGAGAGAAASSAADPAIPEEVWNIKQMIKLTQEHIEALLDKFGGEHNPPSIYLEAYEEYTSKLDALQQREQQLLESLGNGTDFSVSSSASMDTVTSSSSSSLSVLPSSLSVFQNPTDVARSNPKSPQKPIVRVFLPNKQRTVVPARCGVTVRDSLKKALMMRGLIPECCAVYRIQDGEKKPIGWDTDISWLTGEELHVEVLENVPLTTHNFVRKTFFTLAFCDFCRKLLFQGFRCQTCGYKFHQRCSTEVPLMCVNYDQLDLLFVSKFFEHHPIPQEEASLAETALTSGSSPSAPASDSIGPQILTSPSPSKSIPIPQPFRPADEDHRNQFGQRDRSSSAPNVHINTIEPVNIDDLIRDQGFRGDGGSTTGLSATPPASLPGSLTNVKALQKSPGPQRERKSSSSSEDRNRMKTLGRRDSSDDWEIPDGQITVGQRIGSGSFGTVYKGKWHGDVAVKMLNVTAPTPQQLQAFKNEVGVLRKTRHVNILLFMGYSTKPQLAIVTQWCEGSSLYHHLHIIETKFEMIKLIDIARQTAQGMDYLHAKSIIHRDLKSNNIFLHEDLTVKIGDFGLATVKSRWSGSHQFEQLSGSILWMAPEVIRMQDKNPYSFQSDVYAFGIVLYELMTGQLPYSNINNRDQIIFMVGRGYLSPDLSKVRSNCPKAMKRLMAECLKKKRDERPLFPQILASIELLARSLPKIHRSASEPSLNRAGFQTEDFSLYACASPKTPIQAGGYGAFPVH
BRAF V600E: Serine/threonine-protein kinase B-raf (BRAF, Homo sapiens, UniProt P15056, V600E)

| Structure (SMILES) | target | test | conditions | endpoint | result |
| --- | --- | --- | --- | --- | --- |
| CN(C)[C@H]1C[C@@]23CC[C@@]4(O2)C(=CC[C@]2(C)[C@@H](c5ccc6ccncc6c5)CC[C@H]24)C=C3[C@@H](O)[C@@H]1O | BRAF | ATP probe labelling, inhibitor, KiNativ profiling | 1 µM | inhibition | -7.7% |
| CC(C)[C@H]1NC(=O)C[C@H]2/C=C/CCSSC[C@@H](NC1=O)C(=O)N[C@H](Cc1cccc3ccccc13)C(=O)NCC(=O)O2 | BRAF V600E | enzyme activity, inhibitor | 10 µM | inhibition | 7.1% |
| [CH3][Ti+2][O]C(=O)c1ccc([S][Au][PH](c2ccccc2)(c2ccccc2)c2ccccc2)cc1.c1cc[cH-]c1.c1cc[cH-]c1 | BRAF | kinase activity, HotSpot kinase | 1 µM, with: ATP 10 µM | remaining activity | 102% and 101% |
| O=C(O)c1ccccc1/C=N/Nc1nc(-c2ccccc2Cl)cs1 | BRAF V600E | enzyme activity, inhibitor | 1 µM | inhibition | -7.11% |
| C[C@H](NCc1ccc(-c2ccc(C(F)(F)F)cc2)cc1)C(N)=O | BRAF V600E | cell-free assay, competition with immobilised ligand | 1 µM | inhibition | 9% |
| CS(C)(=O)=Nc1ccc(-c2ccc(-c3nc4cc(O[C@@H]5CO[C@H]6[C@@H]5OC[C@H]6O)[nH]c4cc3F)cc2)cc1 | BRAF V600E | enzyme activity, inhibitor | 10 µM | inhibition | 1% |
| Nc1ccc(/C=C/C(=O)N2CCc3c(oc4c(-c5ccc(F)cc5)cc(-c5ccc(C(=O)N6CCC(F)(F)CC6)cn5)cc34)C2)cn1 | BRAF V600E | binding, competition with immobilised ligand | 1 µM | remaining binding | 100% |
| CCOC(=O)[C@@H]1Cc2c(cc([N+](=O)[O-])cc2[N+](=O)[O-])[C@H](O)[C@]12C(=O)Nc1ccc(Br)cc12 | BRAF | binding, competition with immobilised ligand | 0.1 µM | remaining binding | 88% |
